{"data": "Measurements pooled from the literature", "note": "Protocols differ between the studies behind these lines. Numbers after ± are the reported error."}
{"SMILES": "COc1cc(CCC[P+](c2ccccc2)(c2ccccc2)c2ccccc2)c(OC)c2c1OCO2.[I-]", "target or system": "KM12", "test": "SRB", "endpoint": "LC50", "result": "-4.44 log M"}
{"SMILES": "COc1c(C)c2c(c(O)c1C/C=C(\\C)CCC(=O)O)C(=O)OC2", "target or system": "NCI-H292", "test": "cell proliferation", "system": "lung cancer", "endpoint": "IC50", "result": "0.182 µM"}
{"SMILES": "Cc1cc(C(C)(C)c2ccc(O)c(C)c2)ccc1O", "target or system": "HepG2 spheroids", "test": "Hoechst flow cytometry", "conditions": "0.1 µM, 24 h", "endpoint": "G1 phase cells", "result": "70.8 ± 3.16%"}
{"SMILES": "COc1ccc2c(c1)[nH]c1c(C)nccc12", "target or system": "DU-145", "test": "bisulfite pyrosequencing, item: RASSF1A promoter CpG site 11", "conditions": "10 µM, 16 h", "endpoint": "DNA methylation", "result": "80.6%"}
{"SMILES": "CC(C)N1CCC(NC2CCN(c3cccc(-c4cc5cc(F)ccc5[nH]4)c3)CC2)CC1", "target or system": "A549", "endpoint": "CC50", "result": "7.21 µM"}
{"SMILES": "C/C=C(/C)C(=O)O[C@H]1C(C)=C2[C@H]([C@@H]1OC(=O)CCCCCCC)[C@@](C)(OC(C)=O)C[C@H](OC(=O)CCC)[C@@]1(O)[C@H]2OC(=O)[C@@]1(C)O", "target or system": "HEK-293T", "test": "RNA-seq GSEA, item: Hallmark hedgehog signaling", "conditions": "500 nM, 6 h", "how to read": "direction not given", "endpoint": "normalized enrichment score", "result": 1.35}
{"SMILES": "C=C1C(=O)O[C@H]2[C@H]1CC/C(C)=C/CC[C@@]1(C)O[C@@H]21", "target or system": "human coronavirus OC43", "test": "virus-induced cell killing", "system": "MRC-5", "conditions": "screen", "endpoint": "maximum inhibition", "result": "13.3%"}
{"SMILES": "Nc1ncnc2c1ncn2[C@@H]1O[C@@H]2COP(=O)(O)O[C@H]3[C@@H](O)[C@H](n4cnc5c(=O)[nH]cnc54)O[C@@H]3COP(=O)(O)O[C@H]2[C@H]1O", "target or system": "HFF-1", "test": "RNA sequencing Reactome analysis, item: Reactome R-HSA-5669034", "conditions": "together with: West Nile virus infection", "how to read": "relative to: West Nile virus infected cells, upregulated pathway", "endpoint": "pathway fold enrichment", "result": 6.58}
{"SMILES": "COc1c(CCC[P+](c2ccccc2)(c2ccccc2)c2ccccc2)cc2c(c1OC)OCO2.[I-]", "target or system": "Malme-3M", "test": "SRB", "endpoint": "TGI", "result": "-4.99 log M"}
{"SMILES": "Cc1ccc(-n2nc(C(C)(C)C)cc2NC(=O)Nc2ccc(OCCN3CCOCC3)c3ccccc23)cc1", "target or system": "human coronavirus OC43", "test": "virus-induced cell killing", "system": "MRC-5", "conditions": "screen", "endpoint": "maximum inhibition", "result": "77.9%"}
{"note": "A few entries again:"}
{"SMILES": "COc1ccc2c(c1)[nH]c1c(C)nccc12", "target or system": "DU-145", "test": "bisulfite pyrosequencing, item: RASSF1A promoter CpG site 11", "conditions": "10 µM, 16 h", "endpoint": "DNA methylation", "result": "80.6%"}
{"SMILES": "CC(C)N1CCC(NC2CCN(c3cccc(-c4cc5cc(F)ccc5[nH]4)c3)CC2)CC1", "target or system": "A549", "endpoint": "CC50", "result": "7.21 µM"}
